{"data": "Measurements pooled from the literature", "Genome polyprotein NS3 helicase domain": "Genome polyprotein, NS3 helicase domain (Hepatitis C virus genotype 1b, UniProt Q9WMX2)", "XDH oxidase form": "Xanthine dehydrogenase/oxidase, oxidase form (XDH, Bos taurus, UniProt P80457)", "note": "Lines come from different studies, so protocols differ. Values joined by “and” are separate records of one study, mostly repeats; a detail may differ. ± gives the spread as reported.", "UniProt P07948, sequence (whole entry, looked up)": "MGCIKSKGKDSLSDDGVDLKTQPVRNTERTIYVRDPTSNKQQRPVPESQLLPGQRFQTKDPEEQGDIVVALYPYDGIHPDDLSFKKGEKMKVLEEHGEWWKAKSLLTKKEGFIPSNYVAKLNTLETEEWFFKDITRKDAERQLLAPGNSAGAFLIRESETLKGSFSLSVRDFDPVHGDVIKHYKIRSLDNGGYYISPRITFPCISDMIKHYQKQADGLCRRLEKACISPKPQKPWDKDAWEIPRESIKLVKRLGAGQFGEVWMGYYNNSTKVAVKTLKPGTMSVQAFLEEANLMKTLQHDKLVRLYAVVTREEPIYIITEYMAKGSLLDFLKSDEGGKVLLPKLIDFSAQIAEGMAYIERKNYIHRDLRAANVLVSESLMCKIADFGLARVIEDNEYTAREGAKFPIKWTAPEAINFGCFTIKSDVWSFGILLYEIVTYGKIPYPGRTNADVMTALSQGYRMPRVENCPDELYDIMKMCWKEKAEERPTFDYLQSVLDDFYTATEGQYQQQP", "UniProt O15264, sequence (whole entry, looked up)": "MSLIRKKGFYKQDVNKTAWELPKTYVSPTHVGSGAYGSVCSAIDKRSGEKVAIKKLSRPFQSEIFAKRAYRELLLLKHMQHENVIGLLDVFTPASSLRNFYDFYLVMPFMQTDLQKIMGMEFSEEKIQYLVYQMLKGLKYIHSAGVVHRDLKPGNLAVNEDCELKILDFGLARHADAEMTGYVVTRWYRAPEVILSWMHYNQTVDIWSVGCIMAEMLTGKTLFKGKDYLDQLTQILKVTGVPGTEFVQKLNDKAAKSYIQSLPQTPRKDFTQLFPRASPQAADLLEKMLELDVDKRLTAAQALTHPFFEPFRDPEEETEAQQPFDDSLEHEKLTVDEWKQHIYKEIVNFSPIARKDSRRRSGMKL", "UniProt P32247, sequence (whole entry, looked up)": "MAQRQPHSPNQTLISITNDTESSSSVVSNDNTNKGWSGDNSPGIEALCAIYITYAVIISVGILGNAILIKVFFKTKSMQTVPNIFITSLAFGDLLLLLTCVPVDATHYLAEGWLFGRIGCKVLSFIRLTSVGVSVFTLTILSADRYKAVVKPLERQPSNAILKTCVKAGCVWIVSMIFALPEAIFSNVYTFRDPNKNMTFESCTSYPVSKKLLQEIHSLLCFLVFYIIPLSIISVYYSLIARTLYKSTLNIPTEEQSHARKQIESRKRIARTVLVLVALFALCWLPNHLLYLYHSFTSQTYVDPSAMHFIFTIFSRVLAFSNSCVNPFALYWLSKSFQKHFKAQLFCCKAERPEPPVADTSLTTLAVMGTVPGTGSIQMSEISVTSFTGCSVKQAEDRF", "UniProt P31645, sequence (whole entry, looked up)": "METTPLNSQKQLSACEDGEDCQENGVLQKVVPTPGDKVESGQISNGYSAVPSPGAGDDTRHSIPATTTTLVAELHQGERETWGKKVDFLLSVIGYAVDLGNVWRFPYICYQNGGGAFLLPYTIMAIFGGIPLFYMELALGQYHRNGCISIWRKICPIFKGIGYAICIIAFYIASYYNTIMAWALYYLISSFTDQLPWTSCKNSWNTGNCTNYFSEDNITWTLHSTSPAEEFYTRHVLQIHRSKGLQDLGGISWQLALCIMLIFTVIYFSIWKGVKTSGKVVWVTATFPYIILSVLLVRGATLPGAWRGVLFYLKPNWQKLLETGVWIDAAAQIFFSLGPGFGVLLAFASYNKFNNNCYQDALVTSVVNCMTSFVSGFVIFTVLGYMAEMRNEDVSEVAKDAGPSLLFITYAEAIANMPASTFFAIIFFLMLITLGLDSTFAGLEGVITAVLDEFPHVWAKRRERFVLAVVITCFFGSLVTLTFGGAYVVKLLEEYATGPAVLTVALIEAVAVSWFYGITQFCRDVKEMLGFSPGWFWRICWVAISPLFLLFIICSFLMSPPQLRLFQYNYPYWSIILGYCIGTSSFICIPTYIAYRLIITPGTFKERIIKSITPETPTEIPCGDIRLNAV"}
{"SMILES": "CN1CCN(c2cc(-c3ccncc3)c(-c3ccc4ccccc4c3)nn2)CC1", "target": "Free fatty acid receptor 1 (FFAR1, Homo sapiens, UniProt O14842)", "test": "antagonist, FLIPR", "setting": "10 µM", "inhibition": "-4.5%"}
{"SMILES": "CC(C)[C@H]1CN[C@H](C(=O)O)[C@H]1CC(=O)O", "target": "Genome polyprotein NS3 helicase domain", "test": "DNA binding, inhibitor", "system": "hepatitis C virus", "setting": "100 µM, added: Cy5-dT15 DNA", "inhibition": "1%"}
{"SMILES": "FC(F)(F)c1cccc(Nc2nc(NCCOc3ccccc3)nc3[nH]cnc23)c1", "target": "Mitogen-activated protein kinase 13 (MAPK13, Homo sapiens, UniProt O15264)", "test": "enzyme activity, inhibitor, Thermo Fisher kinase screening", "setting": "5 µM", "inhibition": "8% and 5%"}
{"SMILES": "CNc1ccc2oc(C[C@H]3O[C@@]4(CC[C@H]3C)O[C@H]([C@H](C)C(=O)c3ccc[nH]3)[C@H](C)C[C@H]4C)nc2c1C(=O)O", "target": "Genome polyprotein NS3 helicase domain", "test": "DNA binding, inhibitor", "system": "hepatitis C virus", "setting": "100 µM, added: Cy5-dT15 DNA", "inhibition": "1%"}
{"SMILES": "Cn1cc(-c2cc(F)cc(N3CCn4c(cc5c4CCCC5)C3=O)c2CO)cc(Nc2ccc(N3CCN(C4COC4)CC3)cn2)c1=O", "target": "Tyrosine-protein kinase Lyn, isoform B (LYN, Homo sapiens, UniProt P07948)", "test": "kinase activity, inhibitor, SelectScreen kinase profiling", "setting": "0.1 µM, added: ATP at apparent Km", "inhibition": "14%"}
{"SMILES": "CN1CC[C@@]2(C)c3cc(O)ccc3N(C)[C@@H]12.O=C(O)/C=C/C(=O)O", "target": "Genome polyprotein NS3 helicase domain", "test": "DNA binding, inhibitor", "system": "hepatitis C virus", "setting": "100 µM, added: Cy5-dT15 DNA", "inhibition": "1%"}
{"SMILES": "CC[C@H](C)[C@H](NC(=O)[C@@H](NC(=O)[C@H](N)Cc1ccccc1)C(C)C)C(=O)N[C@@H](C)C(N)=O", "target": "Amyloid-beta precursor protein (APP, Homo sapiens, UniProt P05067)", "test": "amyloid-beta aggregation, thioflavin T fluorescence", "setting": "0.5 µM, 48 h, added: 2 µM amyloid-beta", "inhibition": "78.8%"}
{"SMILES": "Cn1cccc1-c1cccnc1", "target": "5-hydroxytryptamine receptor 5A (HTR5A, Homo sapiens, UniProt P47898)", "test": "binding", "setting": "50 µM", "inhibition": "1.6%"}
{"SMILES": "N#C/C(=C\\c1ccc(O)c(O)c1)C(N)=S", "target": "Genome polyprotein NS3 helicase domain", "test": "DNA binding, inhibitor", "system": "hepatitis C virus", "setting": "100 µM, added: Cy5-dT15 DNA", "inhibition": "3%"}
{"SMILES": "C[C@H](C(=O)N[C@H]1COc2ccccc2[C@@H]1S(C)(=O)=O)c1ccc(F)cc1", "target": "Cyclin-dependent kinase 1, with cyclin B1 (CDK1, Homo sapiens, UniProt P06493)", "test": "enzyme activity", "setting": "10 µM, Eurofins selectivity panel", "inhibition": "-17%"}
{"SMILES": "C#C[C@]1(O)CC[C@H]2[C@@H]3CCC4=Cc5nc6nc7ccccc7n6cc5C[C@]4(C)[C@H]3CC[C@@]21C", "target": "Genome polyprotein NS3 helicase domain", "test": "DNA binding, inhibitor", "system": "hepatitis C virus", "setting": "100 µM, added: Cy5-dT15 DNA", "inhibition": "0%"}
{"SMILES": "Cc1ncc(C)n2nc(/C=C/c3nc(N4CCCC4)cc(N4CCOCC4)n3)nc12", "target": "XDH oxidase form", "test": "enzyme activity", "setting": "10 µM", "inhibition": "5%"}
{"SMILES": "CN1CCN(c2nc(N)c3ccccc3n2)CC1", "target": "5-hydroxytryptamine receptor 6 (HTR6, Homo sapiens, UniProt P50406)", "test": "radioligand binding, radioligand competition binding", "setting": "0.1 µM, mean of two", "scale": "reference: control specific binding", "inhibition": "0.6%"}
{"SMILES": "COc1ccc(N2C(=O)N(c3c(C)cccc3Cl)Cc3cnc(Nc4ccc(C5CCN(C)CC5)cc4OC)nc32)nc1", "target": "Mitogen-activated protein kinase kinase kinase 5 (MAP3K5, Homo sapiens, UniProt Q99683)", "test": "kinase activity, inhibitor", "setting": "0.5 µM, ASK1", "inhibition": "1.73%"}
{"SMILES": "NCc1ccc(S(N)(=O)=O)cc1", "target": "Gag polyprotein, nucleocapsid protein p7 (gag, Human immunodeficiency virus type 1 group M subtype B, UniProt P04591)", "test": "NCp7-RNA binding, AlphaScreen", "system": "HIV-1", "setting": "45 µM", "inhibition": "> 50%"}
{"SMILES": "CCS(=O)(=O)Nc1cccc(C(=C2CCCCC2)c2cnc[nH]2)c1", "target": "Genome polyprotein NS3 helicase domain", "test": "DNA binding, inhibitor", "system": "hepatitis C virus", "setting": "100 µM, added: Cy5-dT15 DNA", "inhibition": "0%"}
{"SMILES": "O=C(Nc1cccnn1)N1CCN([C@@H]2CCOc3cc(C(F)(F)F)ccc32)CC1", "target": "XDH oxidase form", "test": "superoxide scavenging", "setting": "20 µM", "inhibition": "27%"}
{"SMILES": "COC(=O)c1ccc(C(=O)OC)c(NC(=O)CN2CCN(C(=O)COc3cccc4ccccc34)CC2)c1", "target": "uncharacterized protein (Erigeron canadensis, UniProt A0A8M0FGR5)", "test": "enzyme activity", "setting": "100 mg/L", "inhibition": "> 30%"}
{"SMILES": "CC(=O)NC[C@H]1[C@H](O)[C@H](O)[C@@H]2[C@H](O)C[C@@H](CO)N21", "target": "Spodoptera litura β-N-acetylglucosaminidase", "system": "crude enzyme", "setting": "0.00313 µM, run 2, added: p-nitrophenyl GlcNAc", "inhibition": "23.2%"}
{"SMILES": "CCCC[C@@H](NC(=O)[C@@H](N)Cc1c(C)cc(O)cc1C)C(=O)NCC(=O)N[C@@H](Cc1ccc(F)cc1)C(=O)N(C)CCC[C@@]1(c2ccc(F)cc2)OCc2cc(C#N)ccc21", "target": "Sodium-dependent serotonin transporter (SLC6A4, Homo sapiens, UniProt P31645)", "setting": "10 µM", "inhibition": "< 50%"}
{"SMILES": "NC(Cc1cc(O)c(O)cc1O)C(=O)O (racemic)", "target": "Genome polyprotein NS3 helicase domain", "test": "DNA binding, inhibitor", "system": "hepatitis C virus", "setting": "100 µM, added: Cy5-dT15 DNA", "inhibition": "22%"}
{"SMILES": "CC(C)N1CCC[C@H]1CNC(=O)c1cn(C2CCCC2)c(=O)c2c1c1ccccc1n2C", "target": "NMDA receptor phencyclidine site, rat", "test": "radioligand binding", "setting": "10 µM", "inhibition": "18%"}
{"SMILES": "C#Cc1n[nH]c2c(-c3cn([C@@H](C)c4ccccn4)c(=O)[nH]c3=O)cc(F)cc12", "target": "Tyrosine-protein kinase Lyn (LYN, Homo sapiens, UniProt P07948)", "test": "kinase activity, inhibitor", "setting": "100 nM", "inhibition": "6.6%"}
{"SMILES": "CN(CCN1CCC(OC(=O)Nc2ccccc2-c2ccccc2)CC1)C(=O)c1ccc(CN2CCC(C(N)=O)CC2)cc1", "target": "human estrogen receptor", "test": "radioligand binding", "setting": "1 µM, added: [3H]estradiol 1.0 nM", "inhibition": "-7%"}
{"SMILES": "O=c1ccc2ccccc2o1", "target": "Endothelin-1 receptor (EDNRA, Homo sapiens, UniProt P25101)", "test": "agonist radioligand binding", "setting": "10 µM, SafetyScreen44", "inhibition": "6.47%"}
{"SMILES": "O=C(Nc1cccnn1)N1CCC(=Cc2cccc(Oc3ccc(C(F)(F)F)cn3)c2)CC1", "target": "Bombesin receptor subtype-3 (BRS3, Homo sapiens, UniProt P32247)", "test": "radioligand binding", "setting": "concentration not given", "inhibition": "11% and 19%"}
{"SMILES": "CC(C)Cn1nc(C(=O)Nc2nc(-c3cccnc3)cs2)c2ccccc2c1=O", "target": "Trypanothione synthetase (Leishmania infantum, UniProt A4I2Z3)", "test": "enzyme activity", "setting": "25 µM", "inhibition": "13.3 ± 10.5%"}
{"SMILES": "CN(C(=O)n1cnc(-c2ccc[n+]([O-])c2)c1)C1CCCCC1", "target": "KATP channel, hamster", "test": "binding", "setting": "10 µM, added: [3H]glyburide", "inhibition": "-3%"}
{"SMILES": "COc1cc(Nc2ncc(F)c(Nc3ccc4c(n3)NC(=O)C(C)(C)O4)n2)cc(OC)c1OC", "target": "Mitogen-activated protein kinase kinase kinase 3 (MAP3K3, Homo sapiens, UniProt Q99759)", "test": "KINOMEscan", "setting": "10 µM", "inhibition": "98%"}
{"SMILES": "O=C(Nc1cnccc1Cl)N1CCN(Cc2ccc3c(c2)OC(F)(F)O3)CC1", "target": "Phosphorylase b kinase gamma catalytic chain, liver/testis isoform (PHKG2, Homo sapiens, UniProt P15735)", "test": "kinase activity, inhibitor", "setting": "10 µM, human", "inhibition": "-2%"}
{"SMILES": "CC(=O)OCC1=C(C(=O)[O-])N2C(=O)[C@@H](NC(=O)CCC[C@@H](N)C(=O)[O-])[C@H]2SC1.[Zn+2]", "target": "Genome polyprotein NS3 helicase domain", "test": "DNA binding, inhibitor", "system": "hepatitis C virus", "setting": "100 µM, added: Cy5-dT15 DNA", "inhibition": "0%"}
{"note": "A few entries again:"}
{"SMILES": "CC[C@H](C)[C@H](NC(=O)[C@@H](NC(=O)[C@H](N)Cc1ccccc1)C(C)C)C(=O)N[C@@H](C)C(N)=O", "target": "Amyloid-beta precursor protein (APP, Homo sapiens, UniProt P05067)", "test": "amyloid-beta aggregation, thioflavin T fluorescence", "setting": "0.5 µM, 48 h, added: 2 µM amyloid-beta", "inhibition": "78.8%"}
{"SMILES": "O=C(Nc1cnccc1Cl)N1CCN(Cc2ccc3c(c2)OC(F)(F)O3)CC1", "target": "Phosphorylase b kinase gamma catalytic chain, liver/testis isoform (PHKG2, Homo sapiens, UniProt P15735)", "test": "kinase activity, inhibitor", "setting": "10 µM, human", "inhibition": "-2%"}
{"SMILES": "CCS(=O)(=O)Nc1cccc(C(=C2CCCCC2)c2cnc[nH]2)c1", "target": "Genome polyprotein NS3 helicase domain", "test": "DNA binding, inhibitor", "system": "hepatitis C virus", "setting": "100 µM, added: Cy5-dT15 DNA", "inhibition": "0%"}
